Experimental data collected from several papers.
Lines come from different studies, so protocols differ.
Target: cAMP-dependent protein kinase catalytic subunit beta (PRKACB, Homo sapiens, UniProt P22694)

`C=CC(=O)N1CCc2ccc(-n3c(=O)ccc4cnc5ccc(-c6cnn(C)c6)cc5c43)cc21` gave a remaining binding of 73% (KINOMEscan; 1 µM; baseline: DMSO control).
With `COc1c(Cl)cccc1Nc1c(-c2ccncc2C#C[C@@]2(C)CCCN2C(=O)/C=C/CN(C)C)[nH]c2c1C(=O)NCC2` the remaining binding was 96% (cell-free assay, competition with immobilised ligand; 3 µM).
`CCn1cc(C(=O)O)c(=O)c2c(N)c(F)c(NC3CCCCC3)cc21` gave an inhibition of -3.5% (kinase activity; 0.1 µM, added: ATP at Km).
With `C=CC(=O)Nc1cccc(-c2cnc3[nH]cc(C(=O)NC(C)(C)C)c3n2)c1` the inhibition was 3% (kinase activity; 0.1 µM).
`Cc1cccc(O[C@H]2CCC[C@@H](C(C)CNCc3ccncc3)C2)c1` (relative stereo) has an inhibition of -2% (enzyme activity, inhibitor; 10 µM).
The inhibition of `CN1CC[C@@H](COc2cnc(C#N)cc2-c2ccn3nc(NC(=O)C4CC4)cc3c2)C1` is reported as -4% (enzyme activity, inhibitor; 1 µM).
`CN1CCN(Cc2ccc(-c3ccc(CO[C@H]4CCC[C@@H]4NC(=O)c4cc(-c5cnn(C)c5)cnc4N)cc3)cc2)CC1` gave an inhibition of 5% (enzyme activity, inhibitor; 0.1 µM).
`Cc1cnc2nc1Nc1cccc(c1)COC/C=C/COCc1cc(ccc1OCCN1CCOCC1)N2` gave a remaining binding of 93% (binding, competition with immobilised ligand; 0.1 µM).
The remaining binding of `COc1cc(Nc2nccc(-c3cnn4nc(OC)ccc34)n2)cc(C(F)(F)F)c1` is reported as 100% (binding, competition with immobilised ligand; 1 µM).
For `C=CC(=O)N1Cc2nc(-c3cc(-c4cc(Cl)cnc4Cl)c(F)cc3F)n(-c3ccncn3)c2C1`, the inhibition was -1.5% (cell-free assay, inhibitor; 1 µM).
`NC(=O)C[C@H]1CCc2sc3ncnc(O[C@H]4CC[C@H](N5CCOCC5)CC4)c3c21` has an inhibition of 4% (enzyme activity, inhibitor; 10 µM).
For `O=C(Cc1ccc(OCc2ccccc2)cc1)NC1(C(=O)O)CCN(C(=O)c2ccc(-c3cccc(Cl)c3)cc2)CC1`, “activity vs control” read 108% (enzyme activity, inhibitor; 10 µM).
`Nc1ncc2c(n1)-c1c([nH]c3ccc(C4=CCOCC4)cc13)CCC2` has a remaining binding of 100% (binding, competition with immobilised ligand; 1 µM).
